Experimental data of several laboratories.
Numbered parts are unrelated; each lists some results of a single study. Several values in a cell are separate wells, animals, samples, runs or records.

Block 1 — observed: cell-free assay; method: competition with immobilised ligand; concentration: 0.1 µM
Compound: CCOC(=O)c1cc2cc(-c3cc(C(=O)NCc4ccc(C(=O)O)cc4)nn3C)ccc2[nH]1
It gave 100% for remaining binding (G protein-coupled receptor kinase 4 (GRK4, Homo sapiens, UniProt P32298)).
Serine/threonine-protein kinase STK11 (STK11, Homo sapiens, UniProt Q15831) — remaining binding: 100%.
For Platelet-derived growth factor receptor alpha (PDGFRA, Homo sapiens, UniProt P16234): remaining binding read 86%.
The remaining binding was 88% (Ribosomal protein S6 kinase beta-1 (RPS6KB1, Homo sapiens, UniProt P23443)).
1-phosphatidylinositol 3-phosphate 5-kinase (PIKFYVE, Homo sapiens, UniProt Q9Y2I7) — remaining binding: 100%.
For Death-associated protein kinase 2 (DAPK2, Homo sapiens, UniProt Q9UIK4): remaining binding read 92%.
For STE20/SPS1-related proline-alanine-rich protein kinase (STK39, Homo sapiens, UniProt Q9UEW8): remaining binding read 85%.
The remaining binding was 86% (Mitogen-activated protein kinase 4 (MAPK4, Homo sapiens, UniProt P31152)).
Epidermal growth factor receptor (EGFR, Homo sapiens, UniProt P00533, L861Q) — remaining binding: 100%.
Serine/threonine-protein kinase Nek6 (NEK6, Homo sapiens, UniProt Q9HC98) — remaining binding: 95%.
For Casein kinase I isoform alpha-like (CSNK1A1L, Homo sapiens, UniProt Q8N752): remaining binding read 100%.
The remaining binding was 98% (Serine/threonine-protein kinase Nek9 (NEK9, Homo sapiens, UniProt Q8TD19)).
For Leucine-rich repeat serine/threonine-protein kinase 2 (LRRK2, Homo sapiens, UniProt Q5S007): remaining binding read 81%.
For Cyclin-dependent kinase-like 2 (CDKL2, Homo sapiens, UniProt Q92772): remaining binding read 88%.
For Serine/threonine-protein kinase D2 (PRKD2, Homo sapiens, UniProt Q9BZL6): remaining binding read 100%.
The remaining binding was 95% (Mast/stem cell growth factor receptor Kit (KIT, Homo sapiens, UniProt P10721, A829P)).
The remaining binding was 91% (Mitogen-activated protein kinase kinase kinase 4 (MAP3K4, Homo sapiens, UniProt Q9Y6R4)).
For Microtubule-associated serine/threonine-protein kinase 1 (MAST1, Homo sapiens, UniProt Q9Y2H9): remaining binding read 87%.
It gave 97% for remaining binding (Dual specificity testis-specific protein kinase 1 (TESK1, Homo sapiens, UniProt Q15569)).

Block 2 — mode: inhibitor
Structure (SMILES): Cc1nc(Nc2ncc(C(=O)Nc3c(C)cccc3Cl)s2)cc(N2CCN(CCO)CC2)n1
The inhibition was 99% (Proto-oncogene tyrosine-protein kinase receptor Ret (RET, Homo sapiens, UniProt P07949, M918T); 10 µM).
The inhibition was less than 50% (Mitogen-activated protein kinase 9 (MAPK9, Homo sapiens, UniProt P45984); 10 µM).
Ankyrin repeat and protein kinase domain-containing protein 1 (ANKK1, Homo sapiens, UniProt Q8NFD2); 10 µM — inhibition: less than 50%.
The inhibition was less than 50% (Protein kinase C epsilon type (PRKCE, Homo sapiens, UniProt Q02156); 1 µM).
It gave less than 50% for inhibition (Serine/threonine-protein kinase PAK 4 (PAK4, Homo sapiens, UniProt O96013); 10 µM).
Mitogen-activated protein kinase kinase kinase kinase 1 (MAP4K1, Homo sapiens, UniProt Q92918); 10 µM — inhibition: 96%.
Wee1-like protein kinase (WEE1, Homo sapiens, UniProt P30291); 10 µM — inhibition: 76%.
It gave less than 50% for inhibition (Serine/threonine-protein kinase PLK1 (PLK1, Homo sapiens, UniProt P53350); 10 µM).
The inhibition was less than 50% (Mitogen-activated protein kinase 4 (MAPK4, Homo sapiens, UniProt P31152); 10 µM).
The inhibition was less than 50% (Mitogen-activated protein kinase 1 (MAPK1, Homo sapiens, UniProt P28482); 10 µM).
The inhibition was 91% (Receptor tyrosine-protein kinase erbB-2 (ERBB2, Homo sapiens, UniProt P04626); 1 µM).

Block 3 — observed: enzyme activity; mode: inhibitor; concentration: 0.5 µM; reference: control
Target: Tyrosine-protein kinase Fgr (FGR, Homo sapiens, UniProt P09769)
The remaining activity of `Cc1nc2cc3nc(-c4cccs4)cnc3cc2n1C` is reported as 89.3%.
With `CN(C)C[C@H]1CCn2c(c(C3=C(c4cn(C)c5ccccc45)C(=O)NC3=O)c3ccccc32)C1` the remaining activity was 97.2%.
For `CCN(CC)C(=O)c1ccc(Nc2nc(OCC3CCCCC3)c3[nH]cnc3n2)cc1`, the remaining activity was 54.2%.
`N#C/C(=C\c1ccc(O)c(O)c1)C(=O)NCc1ccccc1` has a remaining activity of 93.7%.
For `Cc1cn(-c2cc(NC(=O)c3ccc(C)c(Nc4nccc(-c5cccnc5)n4)c3)cc(C(F)(F)F)c2)cn1`, the remaining activity was 63.7%.
For `O=C1c2ccccc2-c2n[nH]c3cccc1c23`, the remaining activity was 88.8%.
For `Nc1cccc(-c2cc3c(Oc4cccc(O)c4)ncnc3[nH]2)c1`, the remaining activity was 5.28%.
`CCN(CC)CCNC(=O)c1c(C)[nH]c(/C=C2\C(=O)Nc3ccc(F)cc32)c1C` gave a remaining activity of 16.4%.
The remaining activity of `O=C(Nc1cccc(Nc2nccc(Nc3cccc(C(F)(F)F)c3)n2)c1)C1CC1` is reported as 80.9%.
For `C[C@@H]1CCN(C(=O)CC#N)C[C@@H]1N(C)c1ncnc2[nH]ccc12`, the remaining activity was 91.1%.
The remaining activity of `O=c1cc(-c2cccc3c2Sc2ccccc2S3)oc(N2CCOCC2)c1` is reported as 84.9%.
`O=C1C(Cl)=C(N2C(=O)CCC2=O)C(=O)c2ccccc21` has a remaining activity of 102%.
`COc1cc2c(cc1OC)-c1[nH]nc(Nc3cccc(F)c3)c1C2` has a remaining activity of 47.2%.

Block 4 — observed: enzyme activity; mode: inhibitor; concentration: 77 µM; reference: untreated
Target: DNA polymerase theta, ATPase domain (POLQ, Homo sapiens, UniProt O75417)
The remaining activity of `Cc1cc(NC(=O)c2cccc(NC(=O)/C=C/CN(C)C)c2)ccc1Nc1nccc(-c2cccnc2)n1` is reported as 107%.
The remaining activity of `CC[C@@H]1C(=O)N(C)c2cnc(Nc3ccc(C(=O)N[C@H]4CC[C@H](N5CCN(CC6CC6)CC5)CC4)cc3OC)nc2N1C(C)C` is reported as 99.9%.
The remaining activity of `C[n+]1cccc(C(=O)[O-])c1` is reported as 100%.
With `Cc1cc(=O)[nH]c(=S)[nH]1` the remaining activity was 86.7%.
`NC[C@H]1O[C@H](O[C@H]2[C@H](O)[C@@H](O[C@H]3O[C@H](CO)[C@@H](O)[C@H](N)[C@H]3O)[C@H](N)C[C@@H]2N)[C@H](N)C[C@@H]1O` has a remaining activity of 99.8%.
`O=C(O)CCC(=O)Nc1ccc(S(=O)(=O)Nc2nccs2)cc1` gave a remaining activity of 95%.
For `O=c1cc[nH]c(=S)[nH]1`, the remaining activity was 102%.
For `C/C=C(/C(=C/C)c1ccc(O)cc1)c1ccc(O)cc1`, the remaining activity was 95.9%.
With `C=N[C@@H](C(=O)N[C@@H]1C(=O)N2[C@@H]1SC(C)(C)[C@@H]2C(=O)O)c1ccccc1` the remaining activity was 93.4%.
The remaining activity of `CN(C)CCOc1ccc(/C(=C(/CCCl)c2ccccc2)c2ccccc2)cc1` is reported as 103%.
`CC(C)C[C@H](NC(=O)[C@@H](NC(=O)c1cccc(-c2ccccc2)n1)[C@@H](C)O)B(O)O` gave a remaining activity of 102%.
For `CN(C)[C@@H]1C(O)=C(C(=O)NCN2CCCC2)C(=O)[C@@]2(O)C(O)=C3C(=O)c4c(O)cccc4[C@@](C)(O)[C@H]3C[C@@H]12`, the remaining activity was 101%.
With `C[C@H]1[C@H](NC(=O)/C(=N\OC(C)(C)C(=O)O)c2csc(N)n2)C(=O)N1S(=O)(=O)O` the remaining activity was 102% and 101%.
`O=C(O)c1cc2cc(F)ccc2[nH]1` gave a remaining activity of 83.6%.
`C[C@](N)(Cc1ccc(O)cc1)C(=O)O` has a remaining activity of 104%.

A few entries again (block 4):
`O=C(O)CCC(=O)Nc1ccc(S(=O)(=O)Nc2nccs2)cc1` gave a remaining activity of 95%.
For `O=c1cc[nH]c(=S)[nH]1`, the remaining activity was 102%.
For `C/C=C(/C(=C/C)c1ccc(O)cc1)c1ccc(O)cc1`, the remaining activity was 95.9%.
With `C=N[C@@H](C(=O)N[C@@H]1C(=O)N2[C@@H]1SC(C)(C)[C@@H]2C(=O)O)c1ccccc1` the remaining activity was 93.4%.
The remaining activity of `CN(C)CCOc1ccc(/C(=C(/CCCl)c2ccccc2)c2ccccc2)cc1` is reported as 103%.
`CC(C)C[C@H](NC(=O)[C@@H](NC(=O)c1cccc(-c2ccccc2)n1)[C@@H](C)O)B(O)O` gave a remaining activity of 102%.
For `CN(C)[C@@H]1C(O)=C(C(=O)NCN2CCCC2)C(=O)[C@@]2(O)C(O)=C3C(=O)c4c(O)cccc4[C@@](C)(O)[C@H]3C[C@@H]12`, the remaining activity was 101%.
